Earlier results, collected from citations in different studies.
Each line is one published result; not all experiments were run side by side. ± gives the spread as reported.
Cell line: A549

CCC1=C(O)c2c(oc(-c3ccc4cc(OC)ccc4c3)cc2=O)C(CC)(CC)C1=O
IC50 (cell growth, SRB): 16800 nM

CC1=C(C)C(=O)OC(C(C)(O)C2CCC3C4CC5OC56C(O)C=CC(=O)C6(C)C4CCC32C)C1 (stereo not drawn)
IC50 (cell growth): 700 nM

CNc1nc(C)c(C(=O)/C=C/c2ccc(O)cc2)s1
IC50 (cell growth): 16300 nM

CSCc1ccccn1.[Cl-].[Cl-].[Ru+2].c1ccc(-c2ccnc3c2ccc2c(-c4ccccc4)ccnc23)cc1.c1ccc(-c2ccnc3c2ccc2c(-c4ccccc4)ccnc23)cc1
phototoxicity index (added: green light 19 J/cm2; baseline: dark EC50 over light EC50): 5.5

CCC1=C(O)c2c(oc(-c3cc4ccccc4s3)cc2=O)C(CC)(CC)C1=O
IC50 (cell growth, SRB): 14000 nM

CCOC(=O)C1=C(CSC(=S)N(C2CCCCC2)C2CCCCC2)N(C)C(=O)NC1c1ccccc1 (stereo not drawn)
late apoptotic cells (concentration not given; baseline: untreated): 3.31%

CCC1=C(O)c2c(oc(-c3cccc4ccccc34)cc2=O)C(CC)(CC)C1=O
IC50 (cell growth, SRB): 1550 nM

CSCc1ccccn1.[Cl-].[Cl-].[Ru+2].c1ccc(-c2ccccn2)nc1.c1ccc(-c2ccccn2)nc1
phototoxicity index (added: green light 19 J/cm2; baseline: dark EC50 over light EC50): 5.5

Cc1nc(-c2nc(-c3ccc(NC(=O)Cn4cc(-c5ccc([N+](=O)[O-])cc5)nn4)cc3)no2)c(C)o1
IC50: 790 nM

O=C1NCC(Cc2ccccc2)N(CC2CCCN2CC(CC2CCCCC2)N2CC(Cc3ccc(O)cc3)N(CCc3ccccc3)C(=O)C2=O)C1=O (stereo not drawn)
IC50 (cell viability; lung): > 100000 nM

c1ccc(Cn2cc(COc3ccc(-c4nc5ccc(C6=NCCN6)cc5[nH]4)cc3)nn2)cc1
early apoptotic cells increase (concentration not given): 27%

[Cl-].[Cl-].[Ru+2].c1ccc(-c2ccccn2)nc1.c1ccc(-c2ccccn2)nc1.c1cnc2c(c1)ccc1cccnc12
IC50 (dark): > 100000 nM

COc1cc(-c2nc3ccc(C)cc3[nH]2)cc(OC)c1OC
IC50 (cell growth): 11.8 µg/mL

N#CC1=C(N)OC2=C(C(=O)CCC2)C1c1ccc(-n2cccn2)cc1 (stereo not drawn)
IC50 (cell growth): 2250 ± 670 nM

Cc1nc(-c2nc(-c3ccc(NC(=O)Cn4cc(-c5cc([N+](=O)[O-])cc([N+](=O)[O-])c5)nn4)cc3)no2)c(C)o1
IC50: 190 nM

A few entries again:
[Cl-].[Cl-].[Ru+2].c1ccc(-c2ccccn2)nc1.c1ccc(-c2ccccn2)nc1.c1cnc2c(c1)ccc1cccnc12
IC50 (dark): > 100000 nM
